Measurements of several laboratories.
Each line is one published result; not all experiments were run side by side. ± marks the error that the study gave.

| SMILES | target or system | test | system | conditions | how to read | measurement | result |
| --- | --- | --- | --- | --- | --- | --- | --- |
| COc1cc2c3c(n(CCCN4CCOCC4)c(=O)c2cc1OC)-c1cc2c(cc1C3=O)OCO2 |  |  | dog | intravenous |  | MTD | 50 mg/m² |
| CO[C@H]1C[C@@H]2CC[C@@H](C)[C@@](O)(O2)C(=O)C(=O)N2CCCC[C@H]2C(=O)O[C@H]([C@H](C)C[C@@H]2CC[C@@H](O)[C@H](OC)C2)CC(=O)[C@H](C)/C=C(\C)[C@@H](O)[C@@H](OC)C(=O)[C@H](C)C[C@H](C)/C=C/C=C/C=C/1C |  |  | healthy adult horses | intravenous, 0.06 mg/kg, 48 h |  | rectal temperature | 37.1 ± 0.4 °C |
| CC(C)Oc1ccc2cc(C(=N)N)ccc2c1 |  |  | octanol/buffer | pH 11, urokinase ligand set |  | logP | 2.24 |
| COc1cc2nccc(Oc3ccc(NC(=O)c4cc5c(n(-c6ccccc6)c4=O)CCCC5=O)nc3)c2cc1OC |  |  | relapsed or refractory AML | oral, all dose levels |  | grade ≥3 Hypotension patients | 15% |
| CCCCCCCCCCCOC(=O)CCCCCN(CCO)CCCCCCCC(=O)OC(CCCCCCCC)CCCCCCCC |  |  |  | pH 5.5, formulated |  | zeta potential | 3.34 mV |
| Cc1cc(-c2nccc3c2ccn3CC(=O)Nc2ccc(-c3cnccn3)cn2)ccn1 |  | refers to: AUCtau | human, plasma | oral, 15 mg once daily | relative to: day 16 over day 1 | accumulation ratio | 1.69 |
| CNC(=O)c1ccc(-c2cnc3ncc(Cc4ccc5ncccc5c4)n3n2)cc1F |  |  | human severe hepatic impairment NCI | oral, 200 mg single dose, mean |  | AUC(0-inf) | 5310 ng·h/mL |
| Cn1cc(-c2ccc(-c3cncc(Cl)c3N3CCC4(CCNC4=O)CC3)cc2)cn1 | COLO 205 | gene expression, microarray, refers to: ATF3 mRNA |  | concentration not given, 2 h | relative to: untreated cells | log2 fold change | 1.65 |
| C=CCNc1nc(C)c(-c2ccnc(Nc3cccc([N+](=O)[O-])c3)n2)s1 |  |  | octanol/buffer | pH 11 |  | logP | 4.8 |
| CC(C)(C(=O)N1CCOc2c(C#N)cncc2C1)C(F)F |  |  | human, both sexes | oral, 30 mg single dose |  | subjects with fatigue TEAE | 16.7% |
| CNC(=O)c1cc(Oc2ccc(NC(=O)Nc3ccc(Cl)c(C(F)(F)F)c3)c(F)c2)ccn1 |  |  | mouse plasma | 25 ng/mL, 6 months, -80 °C |  | long-term stability accuracy | 96.2% |
| COc1ccc([C@@H](O)c2cc(-c3ncnc4cc(N5CCOCC5)ccc34)c(F)cc2Cl)nn1 |  |  | locally advanced rectal cancer patients | 250 mg, added: capecitabine and radiotherapy |  | decreased appetite TEAE incidence | 33% |
| CCO[C@H]1CCN(Cc2c(OC)cc(C)c3[nH]ccc23)[C@H](c2ccc(C(=O)O)cc2)C1 |  |  | human mild hepatic impairment, plasma | oral, 200 mg single dose, median |  | total Tmax | 1.9 h |
| Cc1cc(Nc2ccc(S(F)(F)(F)(F)F)cc2)n2nc(C(C)(F)F)nc2n1 |  |  | Plasmodium falciparum malaria patients | oral, 250 mg |  | adverse event Vomiting | 9.1% |
| C=CC(=O)N1CCC(Oc2cc3c(Nc4ccc(Cl)c(Cl)c4F)ncnc3cc2OC)CC1 |  |  | Sprague-Dawley rat, male, plasma | oral, 2 mg/kg, 1 weeks pretreatment, added: Schisandrin B 20 mg/kg daily pretreatment |  | elimination half-life | 2.88 ± 0.28 h |
| O=S(=O)(O)Oc1c(O)cccc1O |  |  | human, cerebrospinal fluid | concentration not given, median |  | CSF concentration | 2.1 nM |
| COc1cc(C(=O)NC2CCN(C)CC2)c(F)cc1Nc1ncc(C(F)(F)F)c(Oc2cccc3c2C(=O)N(C)C3)n1 |  |  | human patients, plasma | oral, 100 mg once daily repeated, geometric mean |  | dose-normalised AUC(tau) at steady state | 163 nmol·h/L per mg |
| CCCS(=O)(=O)Nc1ccc(F)c(C(=O)c2c[nH]c3ncc(-c4ccc(Cl)cc4)cc23)c1F |  | one-compartment model | tumour xenograft mouse, plasma | oral, dose not given |  | CL/F | 1.29 mL/min/kg |
| CN[C@@H](C)C(=O)N[C@H]1CN(S(=O)(=O)c2cccc(S(=O)(=O)N3CC[C@H]4CC[C@@H](C(=O)NC(c5ccccc5)c5ccccc5)N4C(=O)[C@@H](NC(=O)[C@H](C)NC)C3)c2)CC[C@H]2CC[C@@H](C(=O)NC(c3ccccc3)c3ccccc3)N2C1=O |  | LC-MS/MS | human, advanced solid tumours, plasma | intravenous, 4 mg weekly, day 1 |  | AUC(0-t) | 80.9 ± 36.6 ng·h/mL |
| O=C(Cc1ccc(OC(F)(F)F)cc1)Nc1cc(C2CC2)[nH]n1 |  |  | octanol/buffer, 40 mM buffer | pH 11 |  | logP | 3.77 |
| C=CC(=O)N1CCC([C@@H]2CCNc3c(C(N)=O)c(-c4ccc(Oc5ccccc5)cc4)nn32)CC1 |  |  | rat plasma | 400 ng/mL, 4 h, 10 °C, autosampler | relative to: nominal concentration | stability relative error | 5.7% |
| CCc1cc(C(=O)NC)c2nccc(N3CCc4c(cc(Cn5ccnc5)cc4-c4cn(C)nc4C(F)(F)F)C3=O)c2c1 |  |  | Sprague Dawley rats | oral, 100 mg/kg twice daily, day 4 | relative to: day 1 | body weight change | 6.2% |

A few entries again:
| SMILES | target or system | test | system | conditions | how to read | measurement | result |
| --- | --- | --- | --- | --- | --- | --- | --- |
| O=S(=O)(O)Oc1c(O)cccc1O |  |  | human, cerebrospinal fluid | concentration not given, median |  | CSF concentration | 2.1 nM |
| CCc1cc(C(=O)NC)c2nccc(N3CCc4c(cc(Cn5ccnc5)cc4-c4cn(C)nc4C(F)(F)F)C3=O)c2c1 |  |  | Sprague Dawley rats | oral, 100 mg/kg twice daily, day 4 | relative to: day 1 | body weight change | 6.2% |
| COc1cc2c3c(n(CCCN4CCOCC4)c(=O)c2cc1OC)-c1cc2c(cc1C3=O)OCO2 |  |  | dog | intravenous |  | MTD | 50 mg/m² |
| CCCS(=O)(=O)Nc1ccc(F)c(C(=O)c2c[nH]c3ncc(-c4ccc(Cl)cc4)cc23)c1F |  | one-compartment model | tumour xenograft mouse, plasma | oral, dose not given |  | CL/F | 1.29 mL/min/kg |
